Measured values from different studies.
Protocols differ between the studies behind these lines. Several values in a cell are separate wells, animals, samples, runs or records.
RAF1: RAF proto-oncogene serine/threonine-protein kinase (RAF1, Homo sapiens, UniProt P04049)
TDP1: Tyrosyl-DNA phosphodiesterase 1 (TDP1, Homo sapiens, UniProt Q9NUW8)
Chain of UniProt Q9NUW8 (whole entry, looked up): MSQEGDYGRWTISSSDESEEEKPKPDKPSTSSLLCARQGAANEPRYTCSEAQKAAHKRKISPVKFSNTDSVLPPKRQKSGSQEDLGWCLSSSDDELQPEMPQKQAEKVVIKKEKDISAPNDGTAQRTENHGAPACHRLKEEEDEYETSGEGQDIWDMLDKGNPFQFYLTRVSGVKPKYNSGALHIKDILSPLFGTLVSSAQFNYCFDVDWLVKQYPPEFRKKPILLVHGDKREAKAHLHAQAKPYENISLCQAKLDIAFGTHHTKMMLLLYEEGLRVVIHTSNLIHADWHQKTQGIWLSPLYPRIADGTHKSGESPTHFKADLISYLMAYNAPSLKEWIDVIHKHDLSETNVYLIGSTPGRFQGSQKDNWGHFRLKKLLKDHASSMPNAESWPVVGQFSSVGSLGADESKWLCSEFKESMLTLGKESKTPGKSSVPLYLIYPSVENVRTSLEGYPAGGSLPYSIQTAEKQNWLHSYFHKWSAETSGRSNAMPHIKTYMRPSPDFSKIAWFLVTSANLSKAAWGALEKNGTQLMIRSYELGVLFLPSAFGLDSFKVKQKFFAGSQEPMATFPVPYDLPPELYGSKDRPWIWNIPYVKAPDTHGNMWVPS

COc1ccc(NC(=O)Nc2ccc3c(c2)C(=O)N(C(C)CO)CC(C)C(CN(C)Cc2ccc4c(c2)OCO4)O3)cc1 (stereo not shown)  remaining activity (RAF1; kinase activity, KinaseProfiler; 0.03 µM, species human; baseline: control): 100%
COc1ccc(C(=O)/C=C/c2ccccc2-c2c[nH]c3ccc(C#N)cc23)c(O)c1  inhibition (RAF1; enzyme activity, inhibitor; 20 µM): -10%
O=C(O)c1ccc(Nc2c(-c3ccccc3)nc3ccc(CON=Cc4cccc(N5CCCCC5)n4)cn23)cc1  inhibition (TDP1; enzyme activity, inhibitor; 100 µM, unpurified compound): 2.9%
CN1CCN(Cc2ccc(NC(=O)c3cccc(C#Cc4cnc(N)c5ncccc45)c3)cc2C(F)(F)F)CC1  remaining binding (RAF1; cell-free assay, competition with immobilised ligand; 0.5 µM): 6.4%
CC(=O)N1c2ccc(-c3ccc(CNC(=O)c4cn5cc(-c6cnc(N)nc6)nc(N6CCOCC6)c5n4)cc3)cc2CC[C@@H]1C  remaining binding (RAF1; KINOMEscan; 10 µM): 90%
O=C(O)c1ccc(Nc2c(-c3ccccc3)nc3ccc(CON=Cc4c(Cl)cncc4Cl)cn23)cc1  inhibition (TDP1; enzyme activity, inhibitor; 100 µM, unpurified compound): 57.8%
CNC1C[S+]2CC[S+]3CC[S+](C1)[Ru-4]321([N]=C=S)[n]2c3ccc(OC)cc3c3c4c(c5cc(F)c[n+]1c5c32)C(=O)NC4=O (stereo not shown)  remaining binding (RAF1; KinomeScan; 0.1 µM; baseline: untreated): 100%
NC(=O)C[C@H]1CCc2sc3ncnc(O[C@H]4CC[C@H](N5CCOCC5)CC4)c3c21  inhibition (RAF1; enzyme activity, inhibitor; 10 µM): 0%
COc1cc(Nc2nccc(-c3cnn4nc(OC)ccc34)n2)cc(C(F)(F)F)c1  remaining binding (RAF1; binding, competition with immobilised ligand; 1 µM): 84%
O=C(Cc1ccc(OCc2ccccc2)cc1)NC1(C(=O)O)CCN(C(=O)c2ccc(-c3cccc(Cl)c3)cc2)CC1  activity vs control (RAF1; enzyme activity, inhibitor; 10 µM): 152%
Cc1ccc(-c2c(/C=C(\C#N)C(=O)NC(C)C)n(CCCO)c3ncnc(N)c23)cc1  remaining binding (RAF1; cell-free assay, competition with immobilised ligand; 1 µM): 100%
C=CC(=O)Nc1cccc(-c2cnc3[nH]cc(C(=O)NC(C)(C)C)c3n2)c1  inhibition (RAF1; kinase activity; 0.1 µM): -2% and 1%
COc1c(OCCCN2CCOCC2)ccc2c1N=C(NC(=O)c1cnc(N)nc1)N1CCN=C21  remaining activity (RAF1; kinase activity, inhibitor; 1 µM; baseline: untreated control): 100%
O=C(O)CCC(=O)c1cccc(NS(=O)(=O)c2c[nH]c3ncccc23)c1  remaining activity (RAF1; kinase activity, radiometric; 10 µM): 108%
CN1CCN(Cc2ccc(-c3ccc(CO[C@H]4CCC[C@@H]4NC(=O)c4cc(-c5cnn(C)c5)cnc4N)cc3)cc2)CC1  inhibition (RAF1 (Homo sapiens, UniProt P04049, Y340D/Y341D); enzyme activity, inhibitor; 0.1 µM): 10%
CNC(=O)C[C@H](Cc1ccc(C#N)cc1)NC(=O)c1cc(-c2ccc(CN[C@H](C)c3ccc(C)cc3)o2)ccc1Cl  activity vs control (RAF1; enzyme activity, inhibitor; 1 µM): 106%

Repeated from above:
CNC(=O)C[C@H](Cc1ccc(C#N)cc1)NC(=O)c1cc(-c2ccc(CN[C@H](C)c3ccc(C)cc3)o2)ccc1Cl  activity vs control (RAF1; enzyme activity, inhibitor; 1 µM): 106%
